# Assay results gathered from unrelated publications.
# Lines come from different studies, so protocols differ.
Structure (SMILES),test,system,setting,how to read,endpoint,result
CSc1cc(C)nc(SC)c1NC(=O)CN1CCN(CCSc2nc3ccccc3[nH]2)CC1,,"mouse Crl:CD1 (ICR) female, cerebrum","intranasal repeated, 162 µg in 7 N HCl, 30 min, 7 days dosing",,concentration,32 ng/g
O=c1cc2n(cc1O)CCN(Cc1ccc(Cl)cc1Cl)C2,,"rat, brain","oral, 100 mg/kg, 4 h, unbound",,concentration,430 nM
CO[C@H]1C[C@@H]2CC[C@@H](C)[C@@](O)(O2)C(=O)C(=O)N2CCCC[C@H]2C(=O)O[C@H]([C@H](C)C[C@@H]2CC[C@@H](OCCO)[C@H](OC)C2)CC(=O)[C@H](C)/C=C(\C)[C@@H](O)[C@@H](OC)C(=O)[C@H](C)C[C@H](C)/C=C/C=C/C=C/1C,,"healthy adult human, blood","0.75 mg single dose, 12 h, geometric mean, together with: ritonavir-containing 3D regimen",,concentration,8.26 ng/mL
CCNC(=O)c1nn(-c2ccc(Cl)cc2)c(=O)c2c(N)scc12,,"female mouse, brain","intraperitoneal, 5 mg/kg, 1 h, single dose",,concentration,> 2000 nM
S=C(NCCCc1c[nH]cn1)NCCCN(Cc1ccc(Cl)c(Cl)c1)c1ccc(Br)cn1,,"male C57BL/6 mouse, plasma","intraperitoneal, 30 mg/kg, 30 min",,concentration,2690 ng/mL
O=c1cc2n(cc1O)CCN(Cc1ccccc1)C2,,"rat, brain","oral, 100 mg/kg, 4 h, unbound",,concentration,564 nM
Nc1nc2c(ccc3ccccc32)s1,,"mouse, plasma","intraperitoneal, 10 mg/kg, 24 h",,concentration,500 nM
O=c1cc2n(cc1O)CCN(Cc1ccccc1Cl)C2,,"rat, brain","oral, 100 mg/kg, 4 h, unbound",,concentration,285 nM
Cn1c(-c2ccc(C(N)=O)cc2F)nnc1C(C)(C)Oc1c(F)cc(Cl)cc1F,,"young non-Japanese humans, plasma","oral, 2 mg, day 1, single dose",,mean half-life,93 h
C[C@@H]1CN(Cc2ccc3c(c2)c(=O)c(C(N)=O)cn3-c2ccc(F)cc2)C[C@H](C)O1,,"rat, brain","intraperitoneal, 30 mg/kg, 15 min, single dose",,concentration,760 nM
Cc1cccc(C)c1CN1CCn2cc(O)c(=O)cc2C1,,"rat, plasma","oral, 100 mg/kg, 4 h, unbound",,concentration,249 nM
CC(C)NC(=O)c1nn(-c2ccc(Cl)cc2)c(=O)c2c(N)scc12,,"female mouse, brain","intraperitoneal, 5 mg/kg, 1 h, single dose",,concentration,> 2000 nM
COc1cc(/C=C/C(=O)CC(=O)/C=C/c2ccc(O)c(OC)c2)ccc1O,"cytochrome c release, ELISA",BALB/cByJ female mouse liver mitochondria,30 min,reference: alamethicin maximal release,EC20,> 200 µM
O=c1cc(-c2ccccc2)oc2c(O)c(O)ccc12,,"male CD-1 mouse, brain","oral, 50 mg/kg, 4 h",,concentration,~7 ng/g
Cc1cc(Oc2cncnc2)cc(C(=O)Nc2ccc(F)cn2)n1,,"male Sprague-Dawley rat, brain","oral, 10 mg/kg, 1 h, unbound",,concentration,201 nM
NC(=O)N1c2ccccc2C=Cc2ccccc21,"cytochrome c release, ELISA",BALB/cByJ female mouse liver mitochondria,30 min,reference: alamethicin maximal release,EC20,> 400 µM
N[C@@H](CC(=O)O)Cn1nnc(-c2ccc(Oc3ncc(Cl)cc3F)cc2)n1,,"human, blood","14 days after first dose, all dose groups",,concentration,~20 ng/mL

# Repeated from above:
Structure (SMILES),test,system,setting,how to read,endpoint,result
CCNC(=O)c1nn(-c2ccc(Cl)cc2)c(=O)c2c(N)scc12,,"female mouse, brain","intraperitoneal, 5 mg/kg, 1 h, single dose",,concentration,> 2000 nM
